Experimental data gathered from unrelated publications.
Each line is one published result; not all experiments were run side by side. ± marks the error that the study gave.

O=C1NC(=O)C(C2CCOc3cc(Oc4ccc(C(F)(F)F)cc4Cl)ccc32)S1 (stereo not drawn)  plasma GLP-1 level (measured: total GLP-1; mouse, overnight fasted, plasma; oral, 30 mg/kg, 30 min): 12 pmol/L
CCCc1nc2cc(C(=O)N3CCC4(CC3)CC(=O)c3cc5c(cc3O4)OC(C)(C)CC5)cc(C)c2[nH]1  plasma cholesterol (measured: LDL-c, HDL-c; C57BL/6J male mouse, HFD-induced obesity, plasma; dose not given): decreased
Cc1cc(N)c2cc(NC(=O)C(=O)Nc3ccc4nc(C)cc(N)c4c3)ccc2n1  plasma UFH concentration (heparin neutralization; mouse; intravenous, 6 mg/kg, 5 min, with: UFH 1200 IU/kg s.c.): 0.08 ± 0.001 IU/mL
C[C@H](CC(=O)C[C@@H](C)[C@H]1C[C@H](O)[C@@]2(C)C3=C(C(=O)C[C@]12C)[C@@]1(C)CCC(=O)C(C)(C)[C@@H]1C[C@@H]3O)C(=O)O  plasma insulin (mouse, STZ-induced type 1 diabetes, plasma; dose not given): 51.6 ± 5.32 mU/mL
CC(C)(CCCC/C=C/CCCCCC(C)(C)C(=O)O)C(=O)O  plasma hsCRP reduction (ApoE-/- mouse, Western diet; dose not given, 24 weeks, multiple doses): > 50%
Cc1cccc(O[C@H]2CCC[C@@H](C(C)CNCc3ccncc3)C2)c1 (relative stereo)  plasma IL-1β level (APP/PS1 mouse; dose not given, chronic treatment): decreased
N#Cc1c(Nc2ccccc2C(F)(F)F)s[nH]c1=O  plasma NfL decrease (mouse, sciatic nerve axotomy, plasma; intraperitoneal, 15 mg/kg, two doses, 15 h; reference: vehicle): -30%
O=c1c(-c2cccnc2)c[nH]n1-c1ccc(CO)cn1  plasma EPO (mouse, plasma; oral, 100 mg/kg, 4 h): ~2000 pg/mL
CSCC[C@H](NC(=O)[C@H](CO)NC(=O)[C@@H](N)CO)C(=O)N[C@@H](CCCCN)C(=O)N[C@@H](CC(C)C)C(=O)N[C@@H](CO)C(=O)N[C@@H](Cc1ccccc1)C(=O)N[C@@H](CCCNC(=N)N)C(=O)N[C@@H](C)C(=O)N[C@@H](CCCNC(=N)N)C(=O)N[C@@H](C)C(=O)N[C@@H](Cc1ccc(O)cc1)C(=O)NCC(=O)N[C@@H](Cc1ccccc1)C(=O)N[C@@H](CCCNC(=N)N)C(=O)NCC(=O)N1CCC[C@H]1C(=O)NCC(=O)N1CCC[C@H]1C(=O)N[C@@H](CCC(N)=O)C(=O)N[C@@H](CC(C)C)C(=O)O  plasma catecholamine level (measured: noradrenaline and adrenaline; fed and fasted knockout mouse (endogenous peptide), plasma; dose not given, chronic treatment): decreased

For quick reference, copied from above:
N#Cc1c(Nc2ccccc2C(F)(F)F)s[nH]c1=O  plasma NfL decrease (mouse, sciatic nerve axotomy, plasma; intraperitoneal, 15 mg/kg, two doses, 15 h; reference: vehicle): -30%
